Published values collected from several papers.
± gives the spread as reported.
HTR2C: 5-hydroxytryptamine receptor 2C (HTR2C, Homo sapiens, UniProt P28335)
Sequence of UniProt P28335 (whole entry, looked up): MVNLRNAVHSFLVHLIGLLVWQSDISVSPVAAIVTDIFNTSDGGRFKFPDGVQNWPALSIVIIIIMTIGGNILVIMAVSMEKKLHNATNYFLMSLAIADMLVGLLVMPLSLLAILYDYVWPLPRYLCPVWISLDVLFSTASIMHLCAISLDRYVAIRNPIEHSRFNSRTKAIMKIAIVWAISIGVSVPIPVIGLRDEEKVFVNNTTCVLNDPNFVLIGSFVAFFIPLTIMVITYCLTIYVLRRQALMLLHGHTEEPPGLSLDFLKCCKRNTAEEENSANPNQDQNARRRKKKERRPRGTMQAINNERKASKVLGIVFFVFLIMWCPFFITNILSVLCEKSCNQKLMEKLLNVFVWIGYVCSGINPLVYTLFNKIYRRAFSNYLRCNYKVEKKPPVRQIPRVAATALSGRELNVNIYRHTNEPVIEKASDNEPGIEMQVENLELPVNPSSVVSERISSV
nadD: Probable nicotinate-nucleotide adenylyltransferase (nadD, Mycobacterium tuberculosis, UniProt P9WJJ5)
Sequence of UniProt P9WJJ5 (whole entry, looked up): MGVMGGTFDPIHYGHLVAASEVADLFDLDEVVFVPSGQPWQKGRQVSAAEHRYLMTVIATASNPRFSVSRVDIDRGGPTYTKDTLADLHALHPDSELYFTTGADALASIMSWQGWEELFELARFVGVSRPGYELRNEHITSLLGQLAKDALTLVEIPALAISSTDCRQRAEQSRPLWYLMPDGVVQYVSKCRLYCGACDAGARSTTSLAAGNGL
SLC6A4: Sodium-dependent serotonin transporter (SLC6A4, Homo sapiens, UniProt P31645)
Sequence of UniProt P31645 (whole entry, looked up): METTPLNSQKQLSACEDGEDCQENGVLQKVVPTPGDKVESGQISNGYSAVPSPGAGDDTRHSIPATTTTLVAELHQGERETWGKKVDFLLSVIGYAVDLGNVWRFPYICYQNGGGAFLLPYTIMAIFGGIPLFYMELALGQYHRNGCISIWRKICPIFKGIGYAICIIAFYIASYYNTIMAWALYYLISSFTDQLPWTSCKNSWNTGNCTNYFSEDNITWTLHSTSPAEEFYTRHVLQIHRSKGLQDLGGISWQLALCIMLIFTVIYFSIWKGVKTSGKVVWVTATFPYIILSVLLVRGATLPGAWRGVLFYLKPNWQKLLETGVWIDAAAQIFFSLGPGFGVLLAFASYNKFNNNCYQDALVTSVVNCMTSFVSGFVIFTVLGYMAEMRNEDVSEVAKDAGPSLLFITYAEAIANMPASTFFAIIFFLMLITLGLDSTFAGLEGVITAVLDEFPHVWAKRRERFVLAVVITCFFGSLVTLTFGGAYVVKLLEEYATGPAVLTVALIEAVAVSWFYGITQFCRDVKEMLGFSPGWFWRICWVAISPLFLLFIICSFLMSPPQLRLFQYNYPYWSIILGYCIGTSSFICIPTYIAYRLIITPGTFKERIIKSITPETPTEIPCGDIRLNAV
Sequence of UniProt P17787 (whole entry, unmodified, looked up): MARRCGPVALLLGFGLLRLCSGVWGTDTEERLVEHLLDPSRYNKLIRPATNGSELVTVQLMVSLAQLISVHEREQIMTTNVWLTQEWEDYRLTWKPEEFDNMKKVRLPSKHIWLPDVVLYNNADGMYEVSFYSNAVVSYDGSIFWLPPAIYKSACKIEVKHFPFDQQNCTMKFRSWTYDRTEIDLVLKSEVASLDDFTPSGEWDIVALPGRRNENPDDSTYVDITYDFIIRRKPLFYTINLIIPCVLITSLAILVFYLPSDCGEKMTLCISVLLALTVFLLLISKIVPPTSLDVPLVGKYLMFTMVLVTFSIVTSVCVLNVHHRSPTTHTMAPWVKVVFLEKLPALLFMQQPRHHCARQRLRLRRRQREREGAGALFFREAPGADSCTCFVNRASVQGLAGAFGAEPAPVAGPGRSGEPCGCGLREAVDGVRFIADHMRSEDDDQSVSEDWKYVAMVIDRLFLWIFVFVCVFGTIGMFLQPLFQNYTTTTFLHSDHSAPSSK
Sequence of UniProt P43681 (whole entry, unmodified, looked up): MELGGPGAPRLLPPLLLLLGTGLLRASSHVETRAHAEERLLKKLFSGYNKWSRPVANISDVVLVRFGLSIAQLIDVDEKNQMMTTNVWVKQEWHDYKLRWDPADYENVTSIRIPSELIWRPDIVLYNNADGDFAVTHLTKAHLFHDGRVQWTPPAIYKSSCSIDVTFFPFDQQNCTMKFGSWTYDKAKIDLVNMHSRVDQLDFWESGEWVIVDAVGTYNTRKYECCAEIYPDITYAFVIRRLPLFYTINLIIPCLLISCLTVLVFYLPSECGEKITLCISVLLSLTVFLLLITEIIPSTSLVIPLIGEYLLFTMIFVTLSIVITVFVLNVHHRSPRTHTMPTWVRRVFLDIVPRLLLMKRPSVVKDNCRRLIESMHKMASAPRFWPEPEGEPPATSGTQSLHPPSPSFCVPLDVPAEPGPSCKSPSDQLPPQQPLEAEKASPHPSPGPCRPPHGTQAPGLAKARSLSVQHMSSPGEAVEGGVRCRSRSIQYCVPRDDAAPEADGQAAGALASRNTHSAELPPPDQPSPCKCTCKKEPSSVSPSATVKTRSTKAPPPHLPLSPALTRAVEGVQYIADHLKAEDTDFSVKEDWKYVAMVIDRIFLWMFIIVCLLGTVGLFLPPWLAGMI
Sequence of UniProt Q61327 (whole entry, looked up): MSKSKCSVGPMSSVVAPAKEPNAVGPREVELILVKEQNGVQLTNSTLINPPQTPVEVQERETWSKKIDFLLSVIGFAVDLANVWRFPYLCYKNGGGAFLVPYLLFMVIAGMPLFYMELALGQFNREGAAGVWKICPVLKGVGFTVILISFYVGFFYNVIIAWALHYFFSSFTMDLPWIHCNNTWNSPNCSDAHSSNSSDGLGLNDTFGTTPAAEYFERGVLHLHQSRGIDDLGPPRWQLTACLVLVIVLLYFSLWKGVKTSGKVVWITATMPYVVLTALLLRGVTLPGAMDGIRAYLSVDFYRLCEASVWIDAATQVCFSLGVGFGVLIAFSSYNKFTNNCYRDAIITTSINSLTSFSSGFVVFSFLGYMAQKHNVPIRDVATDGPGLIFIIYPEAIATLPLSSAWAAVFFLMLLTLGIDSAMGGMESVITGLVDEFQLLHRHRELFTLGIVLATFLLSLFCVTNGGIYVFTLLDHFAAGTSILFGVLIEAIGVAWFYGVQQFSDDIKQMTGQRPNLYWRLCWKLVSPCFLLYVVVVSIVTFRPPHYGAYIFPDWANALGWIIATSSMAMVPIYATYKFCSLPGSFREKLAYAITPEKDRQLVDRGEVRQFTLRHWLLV
Sequence of UniProt P9WFX1 (whole entry, looked up): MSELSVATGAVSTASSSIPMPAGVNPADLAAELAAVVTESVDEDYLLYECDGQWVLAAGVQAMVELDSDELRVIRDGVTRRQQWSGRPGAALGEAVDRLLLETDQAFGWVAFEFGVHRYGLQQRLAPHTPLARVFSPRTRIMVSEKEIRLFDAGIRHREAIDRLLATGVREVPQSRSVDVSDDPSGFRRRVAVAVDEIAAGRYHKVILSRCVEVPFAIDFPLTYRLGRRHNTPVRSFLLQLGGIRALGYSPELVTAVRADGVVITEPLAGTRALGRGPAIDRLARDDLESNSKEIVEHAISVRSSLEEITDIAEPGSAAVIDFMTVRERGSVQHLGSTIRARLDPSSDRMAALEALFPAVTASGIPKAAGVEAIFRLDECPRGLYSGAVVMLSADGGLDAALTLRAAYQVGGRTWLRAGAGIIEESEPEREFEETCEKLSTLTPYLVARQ
Sequence of UniProt P17865 (whole entry, looked up): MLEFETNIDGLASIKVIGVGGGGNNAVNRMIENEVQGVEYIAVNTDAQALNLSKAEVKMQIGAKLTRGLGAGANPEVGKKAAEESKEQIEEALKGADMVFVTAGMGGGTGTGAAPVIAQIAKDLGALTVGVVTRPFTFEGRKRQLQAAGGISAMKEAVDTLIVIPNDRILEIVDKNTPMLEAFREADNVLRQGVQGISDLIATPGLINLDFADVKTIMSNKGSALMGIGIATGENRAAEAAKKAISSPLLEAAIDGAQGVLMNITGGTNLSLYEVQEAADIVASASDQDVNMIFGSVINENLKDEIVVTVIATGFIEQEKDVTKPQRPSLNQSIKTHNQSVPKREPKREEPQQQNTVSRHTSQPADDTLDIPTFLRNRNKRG
Sequence of UniProt P36544 (whole entry, looked up): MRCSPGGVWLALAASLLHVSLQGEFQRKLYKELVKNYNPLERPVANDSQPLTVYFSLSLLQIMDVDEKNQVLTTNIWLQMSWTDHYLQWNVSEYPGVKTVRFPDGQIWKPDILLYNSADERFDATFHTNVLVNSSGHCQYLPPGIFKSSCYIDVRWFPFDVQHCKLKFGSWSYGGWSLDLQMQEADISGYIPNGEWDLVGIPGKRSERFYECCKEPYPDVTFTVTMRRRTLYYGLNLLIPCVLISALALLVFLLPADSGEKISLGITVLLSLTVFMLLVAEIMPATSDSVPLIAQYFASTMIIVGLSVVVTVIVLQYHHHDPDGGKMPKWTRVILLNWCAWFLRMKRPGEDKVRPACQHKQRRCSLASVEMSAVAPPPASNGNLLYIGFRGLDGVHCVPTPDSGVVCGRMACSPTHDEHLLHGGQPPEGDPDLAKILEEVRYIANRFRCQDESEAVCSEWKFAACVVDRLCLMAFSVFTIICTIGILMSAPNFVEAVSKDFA

CNC(C)C(=O)c1ccc(F)cc1 (stereo not shown)
IC50 (HTR2C; inositol phosphate, antagonist): > 1000 µM

CCC1=C[C@@H]2CN3CCc4c([nH]c5ccccc45)[C@@](C(=O)OC)(C2)[C@@H]13
IC50 (CHRNA7 (Homo sapiens, UniProt P36544); calcium influx, antagonist; GH3-hα7; 5 min, together with: (±)-epibatidine 1.0 µM): 21.8 ± 2.5 µM

Cc1ccc(OCc2n(CC(=O)OC3CC(C)CCC3C(C)C)c3ccccc3[n+]2C)cc1 (stereo not shown)
IC50 (nadD; released PPi detection): 19.5 ± 2.5 µM

CNC(C)C(=O)c1ccccc1 (stereo not shown)
IC50 (HTR2C; inositol phosphate, antagonist): > 1000 µM

CN[C@@](C)(C[18F])C(=O)O
tissue uptake (SCID mouse A549 xenograft, spleen; 60 min, post injection): 12 ± 1.9 %ID/g

O=c1[nH]c2ccccc2n1C1CCN(CCCC(c2ccc(F)cc2)c2ccc(F)cc2)CC1
IC50 (CACNA1H (Homo sapiens, UniProt O95180); calcium current, blocker, automated patch clamp; holding potential -90 mV; last pulse of train, together with: 1 Hz pulse train): 5.5 ± 1.3 µM

CCn1cc(C(=O)NCC2CCCO2)c(=O)c2cc(F)c(N3CCN(C(=O)c4ccco4)CC3)cc21 (stereo not shown)
IC50 (nadD; enzyme activity, inhibitor, released pyrophosphate): > 100 µM

zantrin Z3
IC50 (ftsZ (Bacillus subtilis, UniProt P17865); GTPase activity, inhibitor; no Triton X-100): 32 µM

CCC[C@@H](C(=O)c1ccc2c(c1)OCO2)N1CCCC1
IC50 (Slc6a3 (Rattus norvegicus, UniProt P23977); transporter uptake, inhibitor, radiometric): 0.00213 µM

Cc1ccccc1OCc1n(CC(=O)OC2CC(C)CCC2C(C)C)c2ccccc2[n+]1C (stereo not shown)
IC50 (nadD; released PPi detection): 18.2 ± 2.6 µM

Ic1cncc(OC[C@@H]2CCN2)c1
IC50 (Neuronal acetylcholine receptor; alpha4/beta2 (Homo sapiens, UniProt P17787+P43681, S138R); binding, inhibitor; 5 h, room temperature, together with: 5 nM [3H]epibatidine): 0.0112 ± 0.00068 µM

COC1C(O)C(n2ccc(=O)[nH]c2=O)OC1C(OC1OC(C(=O)NC2CCCCNC2=O)=CC(O)C1O)C(N)=O (stereo not shown)
IC50 (bacterial RNA polymerase; enzyme activity, inhibitor; greater than highest tested): > 100 µM

CCCC(NC)C(=O)c1ccc(Cl)cc1 (stereo not shown)
IC50 (SLC6A4; transporter uptake, inhibitor, radiometric): 0.61 µM

Sc1nc2ccccc2[nH]1
IC50 (mbtI (Mycobacterium tuberculosis, UniProt P9WFX1)): 58.8 ± 3.6 µM

CCn1cc(C(=O)Nc2nnc(CC(C)C)s2)c(=O)c2cc(F)c(N3CCN(C(=O)c4ccco4)CC3)cc21
IC50 (nadD; enzyme activity, inhibitor, released pyrophosphate): > 50 µM

CCNC(C)C(=O)c1ccc(Cl)cc1 (stereo not shown)
IC50 (SLC6A4; transporter uptake, inhibitor, radiometric): 0.36 µM

C[C@]12CC[C@@H](O)C[C@@H]1CC[C@@H]1[C@@H]2C(=O)C[C@]2(C)C(C=O)=CC[C@@H]12
IC50 (GABAA receptor picrotoxin site): 0.997 ± 0.187 µM

CCN(CC)CCNC(=O)c1cn(CC)c2cc(N3CCN(C(=O)c4ccco4)CC3)c(F)cc2c1=O
IC50 (nadD; enzyme activity, inhibitor, released pyrophosphate): > 100 µM

CCC(NC)C(=O)c1ccc2c(c1)OCO2 (stereo not shown)
IC50 (HTR2C; inositol phosphate, antagonist): > 1000 µM

CCn1cc(C(=O)NCC(C)C)c(=O)c2cc(F)c(N3CCN(C(=O)c4ccco4)CC3)cc21
IC50 (nadD; enzyme activity, inhibitor, released pyrophosphate): 24.8 ± 4 µM

COC(=O)[C@H]1[C@@H](c2ccc(Cl)cc2)C[C@H]2CC[C@H]1N2C
IC50 (Slc6a3 (Mus musculus, UniProt Q61327); transporter uptake, inhibitor, radiometric): 0.00091 µM

CCn1cc(C(=O)Nc2cc(C)ccn2)c(=O)c2cc(F)c(N3CCN(C(=O)c4ccco4)CC3)cc21
IC50 (nadD; enzyme activity, inhibitor, released pyrophosphate): 25.7 ± 9.2 µM

CCC(C(=O)c1ccc2c(c1)OCO2)N(C)C (stereo not shown)
IC50 (SLC6A4; transporter uptake, inhibitor, radiometric): > 9.7 µM

CCCCCNC(=O)c1cn(CC)c2cc(N3CCN(C(=O)c4ccco4)CC3)c(F)cc2c1=O
IC50 (nadD; enzyme activity, inhibitor, released pyrophosphate): 34 ± 8.7 µM

COCCC1CC2CN3CCc4c([nH]c5ccccc45)C(C(=O)OC)(C2)C13 (racemic)
IC50 (Neuronal acetylcholine receptor; alpha4/beta2 (Homo sapiens, UniProt P17787+P43681); calcium influx, antagonist; HEK293-hα4β2; 5 min, together with: (±)-epibatidine 0.1 µM): 6.3 ± 1.3 µM

Repeated from above:
CCC[C@@H](C(=O)c1ccc2c(c1)OCO2)N1CCCC1
IC50 (Slc6a3 (Rattus norvegicus, UniProt P23977); transporter uptake, inhibitor, radiometric): 0.00213 µM

Cc1ccccc1OCc1n(CC(=O)OC2CC(C)CCC2C(C)C)c2ccccc2[n+]1C (stereo not shown)
IC50 (nadD; released PPi detection): 18.2 ± 2.6 µM
